Published values of several laboratories.
A part holds a random share of what one study measured. “And” joins repeats or separate records; there may be more than shown.
Sequence of UniProt Q5BJF2 (whole entry, looked up): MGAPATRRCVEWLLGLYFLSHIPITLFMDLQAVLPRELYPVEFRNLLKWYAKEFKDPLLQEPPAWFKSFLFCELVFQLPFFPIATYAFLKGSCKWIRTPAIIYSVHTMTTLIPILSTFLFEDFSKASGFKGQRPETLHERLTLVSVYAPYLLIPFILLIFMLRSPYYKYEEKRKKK
Sequence of UniProt P14416 (whole entry, looked up): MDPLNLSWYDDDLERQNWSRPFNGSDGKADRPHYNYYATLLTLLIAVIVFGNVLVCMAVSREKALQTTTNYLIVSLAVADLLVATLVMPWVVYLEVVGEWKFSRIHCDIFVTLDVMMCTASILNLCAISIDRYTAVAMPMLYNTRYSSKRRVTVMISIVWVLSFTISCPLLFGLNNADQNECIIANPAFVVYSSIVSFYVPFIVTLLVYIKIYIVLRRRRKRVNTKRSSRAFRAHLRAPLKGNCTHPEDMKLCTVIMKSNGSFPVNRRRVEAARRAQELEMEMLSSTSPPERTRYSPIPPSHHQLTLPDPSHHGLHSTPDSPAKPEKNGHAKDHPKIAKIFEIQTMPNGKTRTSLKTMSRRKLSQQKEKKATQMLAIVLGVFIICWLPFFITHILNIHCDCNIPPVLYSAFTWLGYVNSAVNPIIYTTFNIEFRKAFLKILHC
Sequence of UniProt Q8TD08 (whole entry, looked up): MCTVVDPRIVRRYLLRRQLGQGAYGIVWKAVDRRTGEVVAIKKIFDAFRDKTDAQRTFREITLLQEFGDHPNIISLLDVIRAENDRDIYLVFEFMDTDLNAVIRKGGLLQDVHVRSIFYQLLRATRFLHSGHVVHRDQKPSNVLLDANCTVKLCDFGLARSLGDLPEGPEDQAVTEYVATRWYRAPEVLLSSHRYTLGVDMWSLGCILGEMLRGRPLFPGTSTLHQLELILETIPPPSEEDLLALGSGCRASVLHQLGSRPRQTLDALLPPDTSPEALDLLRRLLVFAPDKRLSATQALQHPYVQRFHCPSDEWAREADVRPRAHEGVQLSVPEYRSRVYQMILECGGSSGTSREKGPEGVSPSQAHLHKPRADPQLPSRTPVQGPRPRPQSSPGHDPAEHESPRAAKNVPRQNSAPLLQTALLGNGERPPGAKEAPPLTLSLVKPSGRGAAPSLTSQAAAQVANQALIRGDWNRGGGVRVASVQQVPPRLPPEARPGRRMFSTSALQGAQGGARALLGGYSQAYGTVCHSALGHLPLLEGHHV
Sequence of UniProt O96017 (whole entry, looked up): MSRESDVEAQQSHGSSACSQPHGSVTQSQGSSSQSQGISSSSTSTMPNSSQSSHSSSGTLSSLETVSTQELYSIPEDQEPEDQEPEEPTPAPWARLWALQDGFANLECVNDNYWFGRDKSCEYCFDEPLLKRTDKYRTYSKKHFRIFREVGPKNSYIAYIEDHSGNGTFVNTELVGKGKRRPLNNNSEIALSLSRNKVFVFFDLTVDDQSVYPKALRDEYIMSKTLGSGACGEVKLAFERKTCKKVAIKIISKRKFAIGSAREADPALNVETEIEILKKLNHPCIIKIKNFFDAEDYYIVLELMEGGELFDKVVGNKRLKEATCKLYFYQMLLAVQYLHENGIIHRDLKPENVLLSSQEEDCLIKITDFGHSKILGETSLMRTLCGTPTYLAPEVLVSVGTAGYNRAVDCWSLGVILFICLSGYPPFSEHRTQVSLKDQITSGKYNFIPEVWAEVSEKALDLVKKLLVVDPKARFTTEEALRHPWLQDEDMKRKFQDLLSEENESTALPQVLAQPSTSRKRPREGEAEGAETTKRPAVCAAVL
Sequence of UniProt P35368 (whole entry, looked up): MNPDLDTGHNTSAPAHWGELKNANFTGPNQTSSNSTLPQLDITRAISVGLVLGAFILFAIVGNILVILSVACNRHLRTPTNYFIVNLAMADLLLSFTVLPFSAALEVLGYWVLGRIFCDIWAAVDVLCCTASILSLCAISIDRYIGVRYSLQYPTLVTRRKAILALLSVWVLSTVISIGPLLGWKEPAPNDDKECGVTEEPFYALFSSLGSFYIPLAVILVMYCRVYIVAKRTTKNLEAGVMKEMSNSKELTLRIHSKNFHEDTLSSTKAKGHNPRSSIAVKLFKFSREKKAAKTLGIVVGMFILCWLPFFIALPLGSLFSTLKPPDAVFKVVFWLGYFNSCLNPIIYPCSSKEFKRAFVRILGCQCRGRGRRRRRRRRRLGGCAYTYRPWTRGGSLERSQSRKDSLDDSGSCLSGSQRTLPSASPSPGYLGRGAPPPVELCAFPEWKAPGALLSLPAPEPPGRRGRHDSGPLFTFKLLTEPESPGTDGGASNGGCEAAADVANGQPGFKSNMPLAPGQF
Sequence of UniProt P25021 (whole entry, looked up): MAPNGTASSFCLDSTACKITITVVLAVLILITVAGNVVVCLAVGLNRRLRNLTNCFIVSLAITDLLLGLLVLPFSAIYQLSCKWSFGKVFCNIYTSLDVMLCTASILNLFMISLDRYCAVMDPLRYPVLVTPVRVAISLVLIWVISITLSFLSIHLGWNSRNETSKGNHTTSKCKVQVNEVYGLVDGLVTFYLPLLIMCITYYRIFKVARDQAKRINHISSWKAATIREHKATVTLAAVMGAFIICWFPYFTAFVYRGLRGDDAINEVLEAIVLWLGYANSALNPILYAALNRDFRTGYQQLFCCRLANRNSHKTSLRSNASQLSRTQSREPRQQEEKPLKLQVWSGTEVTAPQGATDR
Sequence of UniProt Q9H3N8 (whole entry, looked up): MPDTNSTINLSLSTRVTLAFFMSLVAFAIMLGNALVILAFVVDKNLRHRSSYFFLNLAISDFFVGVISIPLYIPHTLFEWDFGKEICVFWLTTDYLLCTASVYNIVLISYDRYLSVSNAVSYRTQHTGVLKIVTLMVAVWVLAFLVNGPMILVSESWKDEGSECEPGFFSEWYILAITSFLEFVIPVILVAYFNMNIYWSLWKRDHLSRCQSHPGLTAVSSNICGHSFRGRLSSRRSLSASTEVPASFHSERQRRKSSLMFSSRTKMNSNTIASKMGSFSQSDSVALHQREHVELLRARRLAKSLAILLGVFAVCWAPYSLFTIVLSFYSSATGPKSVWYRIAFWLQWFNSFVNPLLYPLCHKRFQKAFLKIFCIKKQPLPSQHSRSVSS

Set 1
SMILES: Cc1sc(C(=O)NC2COC2)cc1-n1cc(NC(=O)Nc2c(F)cccc2Cl)cn1
Observed: enzyme activity
Concentration: 10 µM
The remaining activity was 100% (MAPK15 (Homo sapiens, UniProt Q8TD08); baseline: untreated control).
It gave 108% for remaining activity (MAPKAPK3 (Homo sapiens, UniProt Q16644); baseline: untreated control).
It gave 84.2% for remaining activity (TSSK2 (Homo sapiens, UniProt Q96PF2); baseline: untreated control).
For TBK1 (Homo sapiens, UniProt Q9UHD2); baseline: untreated control: remaining activity read 95.8%.
It gave 86.5% for remaining activity (PKN2 (Homo sapiens, UniProt Q16513); baseline: untreated control).
It gave 101% for remaining activity (PRKCG (Homo sapiens, UniProt P05129); baseline: untreated control).
For PIM2 (Homo sapiens, UniProt Q9P1W9); baseline: untreated control: remaining activity read 95.5%.
It gave 97.6% for remaining activity (CIT (Homo sapiens, UniProt O14578); baseline: untreated control).
For AKT2 (Homo sapiens, UniProt P31751); baseline: untreated control: remaining activity read 89.8%.
The remaining activity was 105% (CSNK1A1L (Homo sapiens, UniProt Q8N752); baseline: untreated control).
TEK (Homo sapiens, UniProt Q02763); baseline: untreated control — remaining activity: 85.9%.
For PIM3 (Homo sapiens, UniProt Q86V86); baseline: untreated control: remaining activity read 127%.
The remaining activity was 84.4% (Insulin receptor (INSR, Homo sapiens, UniProt P06213); baseline: untreated control).
It gave 103% for remaining activity (PAK5 (Homo sapiens, UniProt Q9P286); baseline: untreated control).
For MAST3 (Homo sapiens, UniProt O60307); inhibitor: remaining activity read 96.7%.
Cyclin-dependent kinase 2, with cyclin E (CDK2, Homo sapiens, UniProt P24941); baseline: untreated control — remaining activity: 103%.
For TLK2 (Homo sapiens, UniProt Q86UE8); baseline: untreated control: remaining activity read 94.1%.
For NEK7 (Homo sapiens, UniProt Q8TDX7); baseline: untreated control: remaining activity read 95.9%.
It gave 102% for remaining activity (DAPK1 (Homo sapiens, UniProt P53355); baseline: untreated control).
CHEK2 (Homo sapiens, UniProt O96017); baseline: untreated control — remaining activity: 93.8%.
It gave 93.7% for remaining activity (EPHB4 (Homo sapiens, UniProt P54760); baseline: untreated control).
The remaining activity was 89.5% (FER (Homo sapiens, UniProt P16591); baseline: untreated control).
It gave 78.4% for remaining activity (ACVR1B (Homo sapiens, UniProt P36896); baseline: untreated control).

Set 2
SMILES: O=C(NNS(=O)(=O)c1ccccc1F)c1cc(F)cc(-c2ccccn2)c1
Concentration: 10 µM
It gave -20.2% for inhibition (HTR6 (Homo sapiens, UniProt P50406); cell-free assay).
For CHRM4 (Homo sapiens, UniProt P08173); cell-free assay: inhibition read 20.4%.
DRD3 (Homo sapiens, UniProt P35462); cell-free assay — inhibition: 4.97%.
HRH4 (Homo sapiens, UniProt Q9H3N8); cell-free assay — inhibition: -2.44%.
The inhibition was 5.32% (HRH2 (Homo sapiens, UniProt P25021); cell-free assay).
ADRA2A (Homo sapiens, UniProt P08913); cell-free assay — inhibition: -14.9%.
For DRD4 (Homo sapiens, UniProt P21917); cell-free assay: inhibition read 23.8%.
The inhibition was -8.33% (HRH1 (Homo sapiens, UniProt P35367); cell-free assay).
For ADRA1D (Homo sapiens, UniProt P25100); cell-free assay: inhibition read 3.2%.
It gave 9.59% for inhibition (ADRA1A (Homo sapiens, UniProt P35348); cell-free assay).
ADRB1 (Homo sapiens, UniProt P08588); cell-free assay — inhibition: -0.13%.
The inhibition was 19.9% (TMEM97 (Homo sapiens, UniProt Q5BJF2); cell-free assay).
CHRM5 (Homo sapiens, UniProt P08912); cell-free assay — inhibition: -8.87%.
The inhibition was 13.6% (HTR1B (Homo sapiens, UniProt P28222); ligand displacement).
It gave 35.7% for inhibition (SIGMAR1 (Homo sapiens, UniProt Q99720); cell-free assay).
ADRB2 (Homo sapiens, UniProt P07550); cell-free assay — inhibition: 13.2%.
ADRA2C (Homo sapiens, UniProt P18825); cell-free assay — inhibition: 10.2%.
For HTR7 (Homo sapiens, UniProt P34969); cell-free assay: inhibition read -3.75%.
The inhibition was 7.18% (ADRA1B (Homo sapiens, UniProt P35368); cell-free assay).
It gave 79.6% for inhibition (DRD2 (Homo sapiens, UniProt P14416); cell-free assay).
HRH3 (Homo sapiens, UniProt Q9Y5N1); cell-free assay — inhibition: -20.5%.
For DRD1 (Homo sapiens, UniProt P21728); cell-free assay: inhibition read -3.67%.

Set 3
Target: Calcium/calmodulin-dependent protein kinase type II subunit alpha (CAMK2A, Homo sapiens, UniProt Q9UQM7)
Sequence of UniProt Q9UQM7 (whole entry, looked up): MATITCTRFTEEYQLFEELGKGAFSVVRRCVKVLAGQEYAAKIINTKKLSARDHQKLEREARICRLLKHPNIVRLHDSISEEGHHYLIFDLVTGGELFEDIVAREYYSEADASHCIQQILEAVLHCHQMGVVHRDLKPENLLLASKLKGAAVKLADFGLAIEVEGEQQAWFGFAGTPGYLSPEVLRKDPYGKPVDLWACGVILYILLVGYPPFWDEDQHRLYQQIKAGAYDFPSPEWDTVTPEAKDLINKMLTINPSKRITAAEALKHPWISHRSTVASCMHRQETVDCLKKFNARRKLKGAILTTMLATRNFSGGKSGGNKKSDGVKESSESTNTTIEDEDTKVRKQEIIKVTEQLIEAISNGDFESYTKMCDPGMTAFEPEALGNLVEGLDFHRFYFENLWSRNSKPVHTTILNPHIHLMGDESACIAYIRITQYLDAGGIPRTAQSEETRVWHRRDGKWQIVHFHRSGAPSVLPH
Observed: enzyme activity
Action: inhibitor
Concentration: 10 µM
CC(C)=CCCC(C)CCO (centres unmarked) has an inhibition of 8%.
The inhibition of NC(N)=NCCC[C@@H](N)C(=O)N[C@@H](CCCN=C(N)N)C(=O)N1CCC[C@H]1C(=O)N1C[C@H](O)C[C@H]1C(=O)NCC(=O)N[C@@H](Cc1cccs1)C(=O)N[C@@H](CO)C(=O)N1Cc2ccccc2C[C@@H]1C(=O)N1[C@H](C(=O)N[C@@H](CCCN=C(N)N)C(=O)O)C[C@@H]2CCCC[C@@H]21 is reported as -6%.
With O=c1c(-c2ccc(O)cc2)coc2cc(O)ccc12 the inhibition was 10%.
For NC(CCS)C(=O)O (racemic), the inhibition was 12%.
NC(=O)N/N=C/c1ccc([N+](=O)[O-])o1 has an inhibition of 8%.
For CC(=O)O[C@]12CCC(C(=O)O)=CC[C@]13CC[C@H]2[C@@](C)(/C=C/C=C(\C)C(=O)O)OC3=O, the inhibition was -36%.
OCc1cc(C(O)CNCCCCCCOCCCCc2ccccc2)ccc1O (centres unmarked) has an inhibition of 0%.
The inhibition of CC(=O)c1ccc(O)cc1C is reported as 0%.
The inhibition of COc1cnc(-n2cnc(C)n2)c2c1c(C(=O)C(=O)N1CCN(C(=O)c3ccccc3)CC1)cn2COP(=O)(O)O is reported as -0.08% and -0.1%.
With Nc1ccc(S(=O)(=O)Nc2ccnn2-c2ccccc2)cc1 the inhibition was -4%.
Nc1nc(F)nc2c1ncn2[C@@H]1O[C@H](COP(=O)(O)O)[C@@H](O)[C@@H]1O gave an inhibition of -11%.
The inhibition of C[C@@]12C[C@@]3(O)O[C@@H](O1)[C@]1(COC(=O)c4ccc(O)cc4)[C@H]3C[C@@]12O[C@@H]1O[C@H](CO)[C@@H](O)[C@H](O)[C@H]1O is reported as 24%.
O=C1O[C@@H]([C@H](O)CO)[C@@H](O)[C@H]1O has an inhibition of 10%.
With COC(=O)Nc1ccc(C)c(NC(=O)OC)c1 the inhibition was 30%.
The inhibition of Cc1cc2ncc(C(=O)NCC(C)(C)NCC(=O)N3CCC[C@H]3C#N)cn2n1 is reported as -6%.
O=C(O)CCCC[C@@H]1SC[C@@H]2NC(=O)N[C@@H]21 has an inhibition of 1%.
CC(C)c1nc(CN(C)C(=O)N[C@H](C(=O)N[C@@H](Cc2ccccc2)C[C@H](O)[C@H](Cc2ccccc2)NC(=O)OCc2cncs2)C(C)C)cs1 has an inhibition of -14%.
The inhibition of C[C@H](CCC(=O)NCC(=O)O)[C@H]1CC[C@H]2[C@@H]3C[C@H](O)[C@@H]4C[C@H](O)CC[C@]4(C)[C@H]3CC[C@]12C is reported as -8%.
CN(C)c1cc(CNCC(C)(C)C)c(O)c2c1C[C@H]1C[C@H]3[C@H](N(C)C)C(O)=C(C(N)=O)C(=O)[C@@]3(O)C(O)=C1C2=O has an inhibition of -7%.
Cc1c(C(C)C)c(=O)n(-c2ccccc2)n1C gave an inhibition of -13%.

Set 4
Target: Inhibitor of nuclear factor kappa-B kinase subunit alpha (CHUK, Homo sapiens, UniProt O15111)
Sequence of UniProt O15111 (whole entry, looked up): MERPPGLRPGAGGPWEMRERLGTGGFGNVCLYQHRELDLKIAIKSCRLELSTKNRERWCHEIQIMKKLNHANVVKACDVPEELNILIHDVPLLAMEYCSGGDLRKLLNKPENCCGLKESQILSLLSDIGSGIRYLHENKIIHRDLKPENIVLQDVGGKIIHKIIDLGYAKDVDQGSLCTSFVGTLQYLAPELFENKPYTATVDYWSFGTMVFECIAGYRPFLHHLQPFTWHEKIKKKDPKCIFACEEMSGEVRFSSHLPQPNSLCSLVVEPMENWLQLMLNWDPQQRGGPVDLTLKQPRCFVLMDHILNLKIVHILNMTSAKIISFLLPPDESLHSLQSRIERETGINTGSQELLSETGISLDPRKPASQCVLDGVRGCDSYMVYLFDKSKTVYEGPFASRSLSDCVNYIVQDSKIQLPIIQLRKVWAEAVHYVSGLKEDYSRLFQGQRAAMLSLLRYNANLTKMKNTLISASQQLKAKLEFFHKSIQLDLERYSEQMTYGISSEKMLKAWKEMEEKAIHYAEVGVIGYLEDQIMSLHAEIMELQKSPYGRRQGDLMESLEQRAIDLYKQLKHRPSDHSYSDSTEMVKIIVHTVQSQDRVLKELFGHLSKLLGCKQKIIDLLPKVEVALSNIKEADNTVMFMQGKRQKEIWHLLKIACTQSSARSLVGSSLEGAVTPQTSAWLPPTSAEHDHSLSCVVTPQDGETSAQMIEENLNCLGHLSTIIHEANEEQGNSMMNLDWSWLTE
Observed: enzyme activity
Action: inhibitor
Concentration: 0.5 µM
Baseline: control
With NC(=O)c1ccc(N(C(N)=O)c2c(F)cccc2F)nc1-c1ccc(F)cc1F the remaining activity was 100%.
For COc1cc(Nc2c(C#N)cnc3cc(OCCCN4CCN(C)CC4)c(OC)cc23)c(Cl)cc1Cl, the remaining activity was 98.1%.
The remaining activity of Nc1nccc(-c2c(-c3ccc(F)cc3)ncn2C2CCNCC2)n1 is reported as 102%.
With CC(C)(C)n1nc(Cc2cccc3ccccc23)c2c(N)ncnc21 the remaining activity was 94%.
The remaining activity of CCCC(=O)Oc1ccc2[nH]c(C(=O)c3cc4ccccc4[nH]3)cc2c1 is reported as 94.5%.
O=C1Cc2c([nH]c3ccc([N+](=O)[O-])cc23)-c2ccccc2N1 gave a remaining activity of 103%.
CC(=O)c1ccc(N2CCOCC2)cc1O has a remaining activity of 96.2%.
O=C1NC(=O)C(c2c[nH]c3ccccc23)=C1c1c[nH]c2ccccc12 gave a remaining activity of 93.4%.
Cc1cncc2cccc(S(=O)(=O)N3CCCN(C(=O)CN)C[C@@H]3C)c12 gave a remaining activity of 105%.
The remaining activity of Fc1ccc(-c2nc3n(c2-c2ccncc2)CCS3)cc1 is reported as 104%.
For COc1ccc(S(=O)(=O)N(CCO)c2ccccc2CN(C)CC=Cc2ccc(Cl)cc2)cc1, the remaining activity was 92.7%.
N#CC(=C(N)Sc1ccc(N)cc1)c1ccccc1C(F)(F)F has a remaining activity of 102%.
The remaining activity of CC#CC(=O)Nc1cc2c(Nc3ccc(F)c(Cl)c3)ncnc2cn1 is reported as 92.1%.
The remaining activity of Cc1ccc(NC2=CC(=O)c3sc(C)nc3C2=O)cc1 is reported as 91.9%.
Nc1ncnc2c1cnn2-c1ccccc1 gave a remaining activity of 92.6%.
Cc1cc(Nc2nc(-c3ccccc3)nc3ccccc23)n[nH]1 gave a remaining activity of 96.5%.
CSc1nc(-c2ccnc(N[C@@H](C)c3ccccc3)c2)c(-c2ccc(F)cc2)[nH]1 (racemic) gave a remaining activity of 98.4%.
Oc1ccc(Nc2nc(-c3ccc(Cl)cc3)cs2)cc1 gave a remaining activity of 104%.
The remaining activity of Nc1nc(Nc2ccc(S(N)(=O)=O)cc2)nn1C(=O)c1c(F)cccc1F is reported as 99%.
With O=S(=O)(NCCNC/C=C/c1ccc(Br)cc1)c1cccc2cnccc12 the remaining activity was 104%.
With CC[n+]1c(/C=C/N(C)c2ccccc2)n(-c2ccccc2)c2ccc(-c3nc4ccccc4s3)cc21 the remaining activity was 86%.

For quick reference, copied from above (set 4):
The remaining activity of Cc1ccc(NC2=CC(=O)c3sc(C)nc3C2=O)cc1 is reported as 91.9%.
O=C1NC(=O)C(c2c[nH]c3ccccc23)=C1c1c[nH]c2ccccc12 gave a remaining activity of 93.4%.
O=C1Cc2c([nH]c3ccc([N+](=O)[O-])cc23)-c2ccccc2N1 gave a remaining activity of 103%.
Nc1ncnc2c1cnn2-c1ccccc1 gave a remaining activity of 92.6%.
CSc1nc(-c2ccnc(N[C@@H](C)c3ccccc3)c2)c(-c2ccc(F)cc2)[nH]1 (racemic) gave a remaining activity of 98.4%.
With NC(=O)c1ccc(N(C(N)=O)c2c(F)cccc2F)nc1-c1ccc(F)cc1F the remaining activity was 100%.
With CC[n+]1c(/C=C/N(C)c2ccccc2)n(-c2ccccc2)c2ccc(-c3nc4ccccc4s3)cc21 the remaining activity was 86%.
The remaining activity of CCCC(=O)Oc1ccc2[nH]c(C(=O)c3cc4ccccc4[nH]3)cc2c1 is reported as 94.5%.
N#CC(=C(N)Sc1ccc(N)cc1)c1ccccc1C(F)(F)F has a remaining activity of 102%.
The remaining activity of Nc1nccc(-c2c(-c3ccc(F)cc3)ncn2C2CCNCC2)n1 is reported as 102%.
Cc1cc(Nc2nc(-c3ccccc3)nc3ccccc23)n[nH]1 gave a remaining activity of 96.5%.
For COc1cc(Nc2c(C#N)cnc3cc(OCCCN4CCN(C)CC4)c(OC)cc23)c(Cl)cc1Cl, the remaining activity was 98.1%.
